{"data": "Experimental data gathered from unrelated publications", "note": "Compare with care: the assays were run in different laboratories."}
{"Structure (SMILES)": "COc1ccc(C2=[N+]([O-])c3ccccc3N3CCN=C23)cc1", "organism": "Parvimonas micra", "test system": "ATCC 3870", "MIC": "≤ 0.06 µg/mL"}
{"Structure (SMILES)": "CN(C)CCCNC(=O)[C@@H]1NC(=O)[C@@H]2Cc3ccc(cc3)Oc3cc4cc(c3O)-c3ccc5c(c[nH]c5c3)C[C@@H](NC(=O)C(N)c3ccc(O)cc3)C(=O)N[C@H](c3ccc(O)cc3)C(=O)N[C@H]4C(=O)N[C@@H](C(=O)N2C)c2ccc(cc2)Oc2cc1ccc2O (stereo partly drawn)", "organism": "Enterococcus faecium", "test system": "brain heart infusion medium", "MIC": "2 to 4 µg/mL"}
{"Structure (SMILES)": "[O-][N+]1=C(c2ccc(Cl)cc2)C2=NCCCCN2c2ccccc21", "organism": "Porphyromonas sp.", "MIC": "0.25 µg/mL"}
{"Structure (SMILES)": "N=C(N)NCCC[C@@H]1NC(=O)[C@H](CCCNC(=N)N)NC(=O)[C@H](CCCNC(=N)N)NC(=O)[C@H](CCCNC(=N)N)NC(=O)[C@H](Cc2c[nH]c3ccccc23)NC(=O)[C@H](CCCNC(=N)N)NC(=O)[C@H](CCCNC(=N)N)NC(=O)[C@@H](N)CCCCn2cc(nn2)C[C@@H](C(N)=O)NC1=O", "organism": "Bacillus cereus", "setting": "24 h, 37 °C", "MIC": "62.5 µg/mL"}
{"Structure (SMILES)": "CC[C@H](C)[C@H](NC(=O)[C@@H](NC(=O)CN)C(C)C)C(=O)N[C@@H](Cc1ccccc1)C(=O)N[C@@H](CC(N)=O)C(=O)N[C@@H](C)C(=O)N[C@@H](CC(C)C)C(=O)N[C@@H](CCCCN)C(=O)NCC(=O)N[C@H](C(=O)N[C@@H](C)C(=O)N[C@@H](CCCCN)C(=O)N[C@H](C(=O)N[C@H](C(=O)N[C@@H](C)C(=O)N[C@@H](C)C(=O)N[C@@H](CCC(N)=O)C(=O)N[C@@H](CC(C)C)C(=O)N[C@@H](CC(C)C)C(=O)N[C@@H](CCCCN)C(=O)N[C@@H](CCCCN)C(=O)N[C@@H](C)C(=O)N[C@@H](CCCNC(=N)N)C(=O)N[C@H]1CSSC[C@@H](C(=O)O)NC(=O)[C@H](CO)NC(=O)[C@H](CCCCN)NC(=O)[C@H](CC(=O)O)NC(=O)[C@H](CC(C)C)NC(=O)[C@H](CCCCN)NC1=O)C(C)C)[C@@H](C)O)C(C)C", "organism": "Staphylococcus aureus", "test system": "NCTC 10788, Mueller-Hinton broth", "setting": "together with: NaCl 150 mM", "MIC": "2 µM"}
{"Structure (SMILES)": "CCCCCCCCCCCCCCCCSCC1OC(OC2C(N)CC(N)C(OC3OC(CN)C(O)CC3N)C2O)C(O)C(N)C1O (stereo not drawn)", "organism": "Shigella", "test system": "clinical isolate", "MIC": "37.5 µg/mL"}
{"Structure (SMILES)": "CN1C(=O)[C@@H]2NC(=O)[C@@H]3NC(=O)[C@@H](c4ccc(O)cc4)NC(=O)[C@H](NC(=O)C(NCc4ccccn4)c4ccc(O)cc4)Cc4c[nH]c5cc(ccc45)-c4cc3cc(c4O)Oc3ccc(cc3)C[C@H]1C(=O)N[C@@H](C(=O)O)c1ccc(O)c(c1)Oc1ccc2cc1 (stereo partly drawn)", "organism": "Enterococcus faecium", "test system": "brain heart infusion medium", "MIC": "16 µg/mL"}
{"Structure (SMILES)": "[O-][N+]1=C(c2ccc(Cl)cc2)C2=NCCCN2c2ccccc21", "organism": "Parvimonas micra", "test system": "ATCC 3870", "MIC": "0.25 µg/mL"}
{"Structure (SMILES)": "c1ccc(CCNC2CCCc3c2[nH]c2ccc(C4CCCCC4)cc32)cc1 (stereo not drawn)", "organism": "Streptococcus parasanguinis", "assay": "broth microdilution", "test system": "ATCC 903, THY medium", "MIC": "5 µg/mL"}
{"Structure (SMILES)": "CC[C@H](C)[C@H](NC(=O)[C@H](CO)NC(=O)[C@H](CO)NC(=O)[C@H](Cc1ccccc1)NC(=O)CN)C(=O)N[C@@H](Cc1ccccc1)C(=O)N[C@@H](CCCNC(=N)N)C(=O)NCC(=O)N[C@H](C(=O)N[C@@H](C)C(=O)N[C@@H](CCCCN)C(N)=O)C(C)C", "organism": "Escherichia coli", "test system": "ATCC 8739", "setting": "20% FBS", "MIC": "> 128 µM"}
{"Structure (SMILES)": "[O-][N+]1=C(c2ccccc2)C2=NCCCN2c2ncccc21", "organism": "Porphyromonas sp.", "MIC": "≤ 0.06 µg/mL"}
{"Structure (SMILES)": "CO[C@H]1/C=C/O[C@@]2(C)Oc3c(C)c(O)c4c(c3C2=O)C2=NC3(CCN(CC(C)C)CC3)NC2=C(NC(=O)/C(C)=C\\C=C\\[C@H](C)[C@H](O)[C@@H](C)[C@@H](O)[C@@H](C)[C@H](OC(=O)c2ccc(C)cc2)[C@@H]1C)C4=O", "organism": "Mycobacteroides abscessus", "test system": "ATCC 19977 arr deletion", "setting": "90% growth inhibition", "MIC": "0.11 µM"}
{"Structure (SMILES)": "CN(C)CCCNC(=O)[C@@H]1NC(=O)[C@@H]2Cc3ccc(cc3)Oc3cc4cc(c3O)-c3ccc5c(c[nH]c5c3)C[C@@H](NC(=O)C(NC(=O)CCCCCN)c3ccc(O)cc3)C(=O)N[C@H](c3ccc(O)cc3)C(=O)N[C@H]4C(=O)N[C@@H](C(=O)N2C)c2ccc(cc2)Oc2cc1ccc2O (stereo partly drawn)", "organism": "Enterococcus faecium", "test system": "WCC 0533, VRE-A", "MIC": "0.5 to 1 µg/mL"}
{"Structure (SMILES)": "CN[C@@H]1[C@H](O)[C@H](NC)[C@H]2O[C@]3(O)[C@H](O[C@@H]2[C@H]1O)O[C@H](C)C[C@@]3(O)CNCCc1ccc(F)cc1", "organism": "Mycobacteroides abscessus", "test system": "ATCC 19977 whiB7 MAB_2355 deleted", "setting": "120 h", "MIC": "1 to 2 µg/mL"}
{"Structure (SMILES)": "CC[C@H](C)[C@H](NC(=O)[C@H](CCCNC(=N)N)NC(=O)CNC(=O)[C@H](CC(C)C)NC(=O)[C@H](CC(C)C)NC(=O)[C@H](CCCCN)NC(=O)[C@H](Cc1ccccc1)NC(=O)[C@H](C)N)C(=O)N[C@H](C(=O)N[C@@H](Cc1c[nH]cn1)C(=O)N[C@@H](Cc1c[nH]cn1)C(=O)N[C@H](C(=O)NCC(=O)N[C@@H](CC(N)=O)C(=O)N[C@@H](Cc1ccccc1)C(=O)N[C@H](C(=O)N[C@@H](Cc1ccc(O)c(O)c1)C(=O)NCC(=O)N[C@@H](Cc1ccccc1)C(=O)N[C@@H](CO)C(=O)N[C@@H](Cc1c[nH]cn1)C(=O)N[C@H](C(=O)N[C@@H](Cc1ccccc1)C(N)=O)C(C)C)C(C)C)C(C)C)[C@@H](C)CC", "organism": "Enterobacter cloacae", "assay": "broth microdilution", "test system": "AR 0136", "setting": "pH 7.4", "MIC": "> 128 µM"}
{"Structure (SMILES)": "CCCCc1ccc(-c2nc(C)c(C(C)=NNC(=N)N)s2)cc1", "organism": "Staphylococcus aureus", "test system": "NRS1 VISA", "MIC": "1.3 µg/mL"}
{"Structure (SMILES)": "COc1ccccc1C(=O)O[C@H]1[C@H](C)[C@H](O)[C@H](C)[C@@H](O)[C@@H](C)/C=C/C=C(/C)C(=O)NC2=C3NC4(CCN(CC(C)C)CC4)N=C3c3c(c(O)c(C)c4c3C(=O)[C@@](C)(O/C=C/[C@H](OC)[C@H]1C)O4)C2=O", "organism": "Mycobacteroides abscessus", "test system": "ATCC 19977 arr deletion", "setting": "90% growth inhibition", "MIC": "0.03 µM"}
{"Structure (SMILES)": "CN[C@@H]1[C@H](O)[C@H](NC)[C@H]2O[C@]3(O)[C@H](O[C@@H]2[C@H]1O)O[C@H](C)C[C@@]3(O)CNCCC1CCOCC1", "organism": "Mycobacteroides abscessus", "test system": "ATCC 19977 ∆tap", "setting": "120 h", "MIC": "32 µg/mL"}
{"Structure (SMILES)": "CO[C@H]1/C=C/O[C@@]2(C)Oc3c(C)c(O)c4c(c3C2=O)C2=NC3(CCN(CC(C)C)CC3)NC2=C(NC(=O)/C(C)=C\\C=C\\[C@H](C)[C@H](O)[C@@H](C)[C@@H](O)[C@@H](C)[C@H](OC(=O)c2ccccc2Cl)[C@@H]1C)C4=O", "organism": "Mycobacteroides abscessus", "test system": "ATCC 19977 arr deletion", "setting": "90% growth inhibition", "MIC": "0.049 µM"}
{"Structure (SMILES)": "CN[C@@H]1[C@H](O)[C@H](NC)[C@H]2O[C@]3(O)[C@H](O[C@@H]2[C@H]1O)O[C@H](C)C[C@]3(O)CNCc1ccc(F)cc1", "organism": "Streptococcus pyogenes", "test system": "ATCC 700294", "MIC": "100 µg/mL"}
{"Structure (SMILES)": "COc1ccc(C2=[N+]([O-])c3ccccc3N3CC(C)(C)CN=C23)cc1", "organism": "Porphyromonas sp.", "MIC": "0.25 µg/mL"}
{"Structure (SMILES)": "CN[C@@H]1[C@H](O)[C@H](NC)[C@H]2O[C@]3(O)[C@H](O[C@@H]2[C@H]1O)O[C@H](C)C[C@@]3(O)CNCc1ccc(F)cc1", "organism": "Mycobacteroides abscessus", "test system": "ATCC 19977 ∆whiB7 ∆tap", "setting": "120 h", "MIC": "16 µg/mL"}
{"Structure (SMILES)": "[O-][N+]1=C(c2ccsc2)C2=NCCCN2c2ccccc21", "organism": "Porphyromonas sp.", "MIC": "0.125 µg/mL"}
{"Structure (SMILES)": "CN1C(=O)[C@@H]2NC(=O)[C@@H]3NC(=O)[C@@H](c4ccc(O)cc4)NC(=O)[C@H](NC(=O)C(N)c4ccc(O)cc4)Cc4c[nH]c5cc(ccc45)-c4cc3cc(c4O)Oc3ccc(cc3)C[C@H]1C(=O)N[C@@H](C(=O)NCCCN)c1ccc(O)c(c1)Oc1ccc2cc1 (stereo partly drawn)", "organism": "Enterococcus faecium", "test system": "brain heart infusion medium", "MIC": "1 to 2 µg/mL"}
{"Structure (SMILES)": "CN[C@@H]1[C@H](O)[C@H](NC)[C@H]2O[C@]3(O)[C@H](O[C@@H]2[C@H]1O)O[C@H](C)C[C@]3(O)CNCc1ccc(OC(F)(F)F)cc1", "organism": "Streptococcus pyogenes", "test system": "ATCC 700294", "MIC": "> 200 µg/mL"}
{"Structure (SMILES)": "CN1C(=O)[C@@H]2NC(=O)[C@@H]3NC(=O)[C@@H](c4ccc(O)cc4)NC(=O)[C@H](NC(=O)C(N)c4ccc(O)cc4)Cc4c[nH]c5cc(ccc45)-c4cc3cc(c4O)Oc3ccc(cc3)C[C@H]1C(=O)N[C@@H](C(=O)O)c1ccc(O)c(c1)Oc1ccc2cc1 (stereo partly drawn)", "organism": "Enterococcus faecium", "test system": "brain heart infusion medium", "MIC": "8 to 16 µg/mL"}
{"Structure (SMILES)": "CCCCCCCCCCCCCCCCCCSCC1OC(OC2C(N)CC(N)C(OC3OC(CN)C(O)CC3N)C2O)C(O)C(N)C1O (stereo not drawn)", "organism": "Bacillus cereus", "test system": "ATCC 11778", "MIC": "> 150 µg/mL"}
{"note": "For quick reference, copied from above:"}
{"Structure (SMILES)": "CC[C@H](C)[C@H](NC(=O)[C@H](CO)NC(=O)[C@H](CO)NC(=O)[C@H](Cc1ccccc1)NC(=O)CN)C(=O)N[C@@H](Cc1ccccc1)C(=O)N[C@@H](CCCNC(=N)N)C(=O)NCC(=O)N[C@H](C(=O)N[C@@H](C)C(=O)N[C@@H](CCCCN)C(N)=O)C(C)C", "organism": "Escherichia coli", "test system": "ATCC 8739", "setting": "20% FBS", "MIC": "> 128 µM"}
{"Structure (SMILES)": "COc1ccccc1C(=O)O[C@H]1[C@H](C)[C@H](O)[C@H](C)[C@@H](O)[C@@H](C)/C=C/C=C(/C)C(=O)NC2=C3NC4(CCN(CC(C)C)CC4)N=C3c3c(c(O)c(C)c4c3C(=O)[C@@](C)(O/C=C/[C@H](OC)[C@H]1C)O4)C2=O", "organism": "Mycobacteroides abscessus", "test system": "ATCC 19977 arr deletion", "setting": "90% growth inhibition", "MIC": "0.03 µM"}
{"Structure (SMILES)": "c1ccc(CCNC2CCCc3c2[nH]c2ccc(C4CCCCC4)cc32)cc1 (stereo not drawn)", "organism": "Streptococcus parasanguinis", "assay": "broth microdilution", "test system": "ATCC 903, THY medium", "MIC": "5 µg/mL"}
{"Structure (SMILES)": "CN1C(=O)[C@@H]2NC(=O)[C@@H]3NC(=O)[C@@H](c4ccc(O)cc4)NC(=O)[C@H](NC(=O)C(NCc4ccccn4)c4ccc(O)cc4)Cc4c[nH]c5cc(ccc45)-c4cc3cc(c4O)Oc3ccc(cc3)C[C@H]1C(=O)N[C@@H](C(=O)O)c1ccc(O)c(c1)Oc1ccc2cc1 (stereo partly drawn)", "organism": "Enterococcus faecium", "test system": "brain heart infusion medium", "MIC": "16 µg/mL"}
